# Measured values collected from several papers.
# Each numbered part is a random draw from the data of one study; scales do not carry over between parts. Substitutions count along the parent as printed.

# Study 1
# Target: CCND1, cyclin fold, Cln2 fusion (human)
# Method: yeast growth competition, sequencing
# Medium: yeast
# Setting: weak parent motif
# Relative to: not given
# Reading: higher = stronger binding
# Parent: CDC6 docking peptide (human); TLKGRRLVFDNQL
Variant,normalised enrichment score
FLKGRRLVFDNQL [T1F],-0.193
TLKGRRLKFDNQL [V8K],0.243
TLKGRRLHFDNQL [V8H],0.35
TKKGRRLVFDNQL [L2K],0.511
TLKGRRLVFMNQL [D10M],0.392
TLKGRRLVFDNQQ [L13Q],1.17
TLKGRRLVFDNLL [Q12L],0.841
TLKGRWLVFDNQL [R6W],-0.457
TLKGERLVFDNQL [R5E],0.44
TLKGRRLVCDNQL [F9C],-0.324
TLQGRRLVFDNQL [K3Q],0.591
TTKGRRLVFDNQL [L2T],0.0592
TLKGRRLVFDPQL [N11P],0.594

# Study 2
# Target: Sal-like protein 4, full length isoform B (SALL4, Homo sapiens, UniProt Q9UJQ4-2, residues 1-616)
# Method: universal PBM
# Form: double-stranded DNA, one strand shown
# Medium: in vitro
# Concentration: not given
# Setting: 8-mer, flanks averaged, mean of replicates
# Reading: higher = stronger binding
# Target sequence (chain): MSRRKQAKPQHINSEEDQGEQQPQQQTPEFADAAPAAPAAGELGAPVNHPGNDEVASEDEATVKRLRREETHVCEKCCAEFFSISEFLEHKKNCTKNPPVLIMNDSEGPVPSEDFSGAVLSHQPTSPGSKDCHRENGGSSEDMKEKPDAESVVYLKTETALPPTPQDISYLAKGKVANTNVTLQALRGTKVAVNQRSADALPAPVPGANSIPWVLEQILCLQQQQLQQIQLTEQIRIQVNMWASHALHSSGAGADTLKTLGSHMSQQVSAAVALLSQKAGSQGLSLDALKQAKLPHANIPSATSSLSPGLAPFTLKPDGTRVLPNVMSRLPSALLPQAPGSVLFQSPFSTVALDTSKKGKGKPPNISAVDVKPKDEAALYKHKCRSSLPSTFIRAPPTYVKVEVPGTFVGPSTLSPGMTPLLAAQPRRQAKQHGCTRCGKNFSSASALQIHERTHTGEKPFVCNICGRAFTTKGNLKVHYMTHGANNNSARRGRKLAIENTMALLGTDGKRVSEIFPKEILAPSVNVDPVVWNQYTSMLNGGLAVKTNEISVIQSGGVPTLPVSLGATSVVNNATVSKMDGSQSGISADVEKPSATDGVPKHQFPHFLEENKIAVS
Oligonucleotide,E-score
AACGATTA,0.139
GGGTACAC,-0.186
ATGAGACA,0.161
CAGTTAGC,-0.182
GATCTTTA,0.183
GGGCACGA,-0.0909
AGGATTGC,-0.104
ACAGAAGT,0.175
TCGCAGAA,0.0194
AGACCCAA,-0.0653
CTCCGGTA,-0.1
AAGGTCGA,0.0492
CGGCCCCC,-0.289
CCCGGCTA,-0.237
CGATTCAA,0.00257
ACCCCTAT,-0.0736
AGTTACAT,0.208
AAACAGAT,0.157
TAATTTGA,0.33
ATACTGCA,0.106
CTGTCTGC,-0.0565
CGCTTGAA,-0.0121
AAATGCAA,0.273
GACACGTA,0.101
GGCCGGGA,-0.174

# Study 3
# Target: RNA binding protein fox-1 homolog 2, RRM domain, GST-SBP tag (RBFOX2, Homo sapiens, UniProt O43251-10, residues 100-194)
# Method: RNA Bind-n-Seq
# Form: RNA
# Medium: in vitro
# Concentration: 365 nM
# Setting: natural RNA segment, single round, ends assumed
# Relative to: no-protein control
# Reading: higher = stronger binding
# Construct (chain): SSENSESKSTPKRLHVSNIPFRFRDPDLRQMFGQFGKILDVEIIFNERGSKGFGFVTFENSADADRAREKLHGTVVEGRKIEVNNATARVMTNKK
Oligonucleotide,RBNS enrichment (R)
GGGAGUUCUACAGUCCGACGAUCCAAAUAAAUAACCUAUGGCCAAACUUGCACUGUUACGUGUUAACCAAGACAUCCCUUUAGGUGACAAGACUCUAUAACAGUGGUUACCUGUCUCCAUGUUGACACUUCAUUGGAAUUCUCGGGUGCCAA,0.44
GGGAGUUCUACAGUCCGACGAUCACUAAUUGAAAAAUAUCAAAUUUACUAUUAUAAUGUAAGAGAGAAAUAUAGGUCAUAACUUCGGCACGACUUUAAGUACUAAGCAAUAAUGGAGUCGUCAGACGCCUCCGUGGAAUUCUCGGGUGCCAA,0.249
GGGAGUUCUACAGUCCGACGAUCAUCUGUAUUAUACACUAAGCUAUUACAAUGGUACUUAAAAUAAUGUAAAUUUGAAGUCAUUGUUAUAAAAUAAUAAAGUGGAGAUUACUUAAGUAUUUAAAUUAUGAAAGUGGAAUUCUCGGGUGCCAA,0.557
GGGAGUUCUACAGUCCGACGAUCGCUGCACAUACCUUUUUCAAAAGGGACACUCGGGAAGUCACUGCUGUGACCGUUUCGAUGUUGAUAAGAAGGUGAAUUUACUGUAGUGUUACCACCUUCUCCCCACUUGAUGGAAUUCUCGGGUGCCAA,0.913
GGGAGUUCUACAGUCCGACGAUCUUUGAGAGAGUAUCGUGUCGAAAGUGUGAUGUUCUACCACUUUACCAAUAACUAAUUUUAAAUACACAUUGUCCUCUCGAUUUUUGGACCAAACAGACGCUCACAGUGGAUGGAAUUCUCGGGUGCCAA,0.56
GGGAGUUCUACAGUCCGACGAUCUUCCAGAAAACUGUCACAGAGCACACGCACAAAGGCCUUCGCUGUAGGGCCCAACAGGGACAGGAGACUUGAGGACACCUGUCAUCAGCACUGGUGUCUAUUCCACAAGAUGGAAUUCUCGGGUGCCAA,0.321
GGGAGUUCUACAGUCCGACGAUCCGUGAUUCUUACUCGGCAUCCUCCAUUCCCCAAACUCCCUCCUCCCUGUUAAAUGUCAACCUAGACCUGGACCUGGGUGGGAGGAAACUGUAGCCUGAGUGUCCACAGGGUGGAAUUCUCGGGUGCCAA,0.318
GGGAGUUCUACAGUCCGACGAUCCCACCGAACAGCACAGCUAGUGCCUACUGAGUUCAGAGAGUGCAAGGGGACGAAGGUGGGGAUCCUGAAAUGUUCUUCAACUGGGGAAGACAGAGCUCACCUUCAGGCAGUGGAAUUCUCGGGUGCCAA,1.16
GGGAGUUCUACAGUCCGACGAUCUUUUUCUUUCCCUCCUGCCUCUUCCCUUCCCACUCCCUGGUUCAACACAGGUAAAAUGGUUACCCUCCCUUCUUUCCUCCCCUCUGCCUUCAUGGAUCACCAACUCACGUUGGAAUUCUCGGGUGCCAA,0.785
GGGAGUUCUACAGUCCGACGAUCAUAUUUGGUCAUAAACCAGAAAUUAAAGAAAGAGGAUUAAGCUUUUUUGACUGAAAGUACUAAAAGUCAGCUUUACUAGUGCCAAACCUUUAAAUUUUCAAAAGAAAAUUUGGAAUUCUCGGGUGCCAA,0.456
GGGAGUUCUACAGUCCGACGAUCCUACCUCUCCCCUCAUCAGAUCAGCUAAGCUGUGAGGUUCUAAGAGGUCUAGGUGUGUUUAAAUUUCUGAAGAUCAUUUUUCAUUAUAACAUUCAGGCCAGACACUUGAAUGGAAUUCUCGGGUGCCAA,0.443
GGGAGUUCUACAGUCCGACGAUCGAGAUCAGUCUAUCACCCAGGCUGGAGUGCAGUGGUGACAUCAUAGCUCACUGUAACUUCUCCCAUACUCUACCAAUCCUCCUGCCUCAGCAUCCAGACUAGCUGUGAUUUGGAAUUCUCGGGUGCCAA,2.63

# Study 4
# Target: Histone acetyltransferase KAT6A, both winged helices, GST fusion (KAT6A, Homo sapiens, UniProt Q92794, residues 1-181)
# Method: protein binding microarray
# Form: double-stranded DNA, one strand shown
# Medium: in vitro
# Concentration: not given
# Setting: 8-mer, flanks averaged, mean of 2 arrays, mostly near background
# Relative to: not given
# Reading: higher = stronger binding
# Target sequence (chain): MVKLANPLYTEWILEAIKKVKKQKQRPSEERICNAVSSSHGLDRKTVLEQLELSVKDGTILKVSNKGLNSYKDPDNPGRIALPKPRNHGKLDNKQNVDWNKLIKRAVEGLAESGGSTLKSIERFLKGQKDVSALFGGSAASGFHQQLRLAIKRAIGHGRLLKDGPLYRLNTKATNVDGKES
Oligonucleotide,E-score
ACGCATGG,0.0917
CAAGAGCA,-0.207
AAGTAAGG,-0.181
ATTTTGGG,-0.204
GACACGCA,0.223
GTATACGA,-0.0834
ACGATCTG,-0.178
GCACCAGA,-0.132
TTTAGAAA,0.0504
CCCGTCCG,0.253
CCAAGAAG,-0.0785
TAAACACA,-0.108
TCCATGAA,-0.062
CTTTCCGC,0.234
AGGCATTG,-0.184
AACGGCGC,0.275
GACCCTGA,-0.0745
CCTCGTAC,0.1
CAGTTAGG,-0.25
GAAAGTAA,-0.116

# Study 5
# Target: Phosphate system positive regulatory protein PHO4, full length, GST-tagged (PHO4, Saccharomyces cerevisiae, UniProt P07270, residues 1-312)
# Method: competition protein-binding microarray
# Form: double-stranded DNA, one strand shown
# Medium: in vitro
# Concentration: 2 µM
# Setting: whole 60-bp probe, lowest competitor level
# Added: Cbf1 competitor, 0.05 µM
# Reading: higher = stronger binding
# Construct (chain): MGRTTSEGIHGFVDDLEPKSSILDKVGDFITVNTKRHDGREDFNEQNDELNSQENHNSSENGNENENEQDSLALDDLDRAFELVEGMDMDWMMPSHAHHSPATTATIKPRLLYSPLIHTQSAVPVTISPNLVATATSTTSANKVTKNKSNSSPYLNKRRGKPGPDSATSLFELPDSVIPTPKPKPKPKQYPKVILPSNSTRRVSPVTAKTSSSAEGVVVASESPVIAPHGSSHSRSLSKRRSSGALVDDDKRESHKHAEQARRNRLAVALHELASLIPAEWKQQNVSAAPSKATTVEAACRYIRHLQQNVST
Oligonucleotide,fluorescence intensity
AAAGCGGTAATTTGCATCGTGGGTGCAGATATCTATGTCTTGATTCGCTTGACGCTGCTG,10900 a.u.
CAGCAAGTCCTTCCTCACCTGATCCTTCTCATCGTCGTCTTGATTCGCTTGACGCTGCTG,2830 a.u.
GGCCGCCCATGGCCGCATGTGAGCAACGTCGACATTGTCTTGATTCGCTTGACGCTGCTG,6490 a.u.
AATAAAGAGAAAAACCATGTGCGGTAGCAGCCTGCCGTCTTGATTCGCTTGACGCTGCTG,10100 a.u.
CGTCCTAGTGATTGTCACATAACTTCCATGAGGAAGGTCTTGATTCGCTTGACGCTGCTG,5020 a.u.
ATTATCAATTGCCATCACGTGCAAACCGAAGAAATGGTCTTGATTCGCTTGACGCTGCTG,17400 a.u.
TTTCGGTTTTTATCGCACGTTTCTTTTTGGTGAGCGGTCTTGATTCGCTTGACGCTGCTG,14100 a.u.
CATGATAATCTGCAACACAATCAAGGCCAGATTACTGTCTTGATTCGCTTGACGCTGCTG,3570 a.u.
CTCTCGAAGTTTGGAAACGTGGTGAGTGCCTTGACGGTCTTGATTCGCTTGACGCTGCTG,15100 a.u.
CGGGGTTAAGTTTGACCAGTGGGTGGCTTGCAGCAGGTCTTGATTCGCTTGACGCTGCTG,4300 a.u.
GTCTTCTGCCCCGGTCATATGAGTGGTATTCTTCTAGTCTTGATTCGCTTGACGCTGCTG,4710 a.u.
AAGGTTGTTAACTTCCACGTTCAGGTTATTCACTACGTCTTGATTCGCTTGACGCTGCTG,8850 a.u.
CATACCCAACCTTGACAGGTGGGTGAAGATATTTGTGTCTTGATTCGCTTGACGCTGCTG,5710 a.u.
CTAACGAAGGTTTTTCACGTGCCTTACAAGCCAAGTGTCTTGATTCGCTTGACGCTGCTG,14500 a.u.
AAAGTTATCAAGACCGACGTGTCCTCCTCGTCGTTCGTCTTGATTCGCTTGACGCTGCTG,4650 a.u.
GAACAAGACAATCCACACGGGATTTTGACGCCCCTAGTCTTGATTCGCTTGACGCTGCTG,5120 a.u.

# A few entries again (study 4):
Oligonucleotide,E-score
ATTTTGGG,-0.204
GACCCTGA,-0.0745
CCAAGAAG,-0.0785
AAGTAAGG,-0.181
TTTAGAAA,0.0504
GCACCAGA,-0.132
CAAGAGCA,-0.207
AACGGCGC,0.275
GTATACGA,-0.0834
CCTCGTAC,0.1
GAAAGTAA,-0.116
AGGCATTG,-0.184
GACACGCA,0.223
